Experimental data collected from several papers.
Protocols differ between the studies behind these lines. “And” joins repeats or separate records; there may be more than shown. ± gives the spread as reported.

SMILES	test	test system	conditions	scale	quantity	value
O=C(NC1CCOCC1)c1ccc(C2CCCCC2)cc1	liver microsome stability	rat liver microsomes	1 µM	–	hepatic clearance	53 mL/min/kg
COc1cc2c(NC3CCN(C(C)C)CC3)cc(N3CCOCC3)nc2cc1OCCCN1CCCC1	TMT proteomics, item: NPTXR	5xFAD mice, hippocampus	dose not given, unit not given	relative to: untreated 5xFAD	protein level difference	-0.167
CC(=O)[O-].O.O.O.O.[Mn+2].[O-]c1ccc(Br)cc1C=NCCN1CCOCC1	nitric oxide scavenging	–	120 µM	–	inhibition	19.4%
CCCCCc1ccc(S(=O)(=O)N2CC2C(=O)OC)cc1 (stereo not drawn)	–	mouse, Lewis lung carcinoma	intraperitoneal, 5 mg/kg, 16 doses, day 13	–	tumour growth inhibition	73%
COc1ccc(NC(=O)c2ccc3[nH]c(-c4ccc(N(C)C)cc4)nc3c2)cn1	–	CT26, BALB/c mice, subcutaneous syngeneic graft	dose not given, day 14	–	tumour volume	662 mm3 and 766 mm3 and 393 mm3 and 88.8 mm3 and 768 mm3
COC1OC(C)C(OC2OC(C)C(OS(=O)(=O)O)C(OC3OC(C)C(OC4OC(C)C(OS(=O)(=O)O)C(OC5OC(C)C(OC6OC(C)C(OS(=O)(=O)O)C(OC7OC(C)C(OS(=O)(=O)O)C(OS(=O)(=O)O)C7OS(=O)(=O)O)C6OS(=O)(=O)O)C(OS(=O)(=O)O)C5OS(=O)(=O)O)C4OS(=O)(=O)O)C(OS(=O)(=O)O)C3OS(=O)(=O)O)C2OS(=O)(=O)O)C(OS(=O)(=O)O)C1OS(=O)(=O)O (stereo not drawn)	–	human plasma	16 µg/mL	–	activated partial thromboplastin time	75.7 s and 77.5 s and 79.5 s
COC1CN([C@H]2CC[C@H]([C@@]3(C)Oc4c(Cl)cc(C(=O)NCc5c(SC)cc(C)[nH]c5=O)c(C)c4O3)CC2)C1	RNA-seq, item: RAP1GAP mouse homolog	mouse, HT-1376 xenograft, whole blood	dose not given	relative to: vehicle	log2 fold change	1.97
CCCCCCCCCCCCCCCC(=O)NCCCC[C@H](NC(=O)[C@H](CCC(=O)O)NC(=O)[C@H](Cc1ccc(O)cc1)NC(=O)[C@H](CCC(=O)O)NC(=O)COCC(=O)NCCCOCCOCCOCCCNC(=O)[C@H](Cc1ccccc1)NC(=O)[C@H](CC(N)=O)NC(=O)[C@H](Cc1c[nH]cn1)NC(=O)[C@@H](NC(=O)[C@H](CC(=O)O)NC(=O)[C@H](CCC(N)=O)NC(=O)[C@H](CC(C)C)NC(=O)[C@H](CCCCN)NC(=O)[C@H](CCCCN)NC(=O)[C@H](CCCNC(=N)N)NC(=O)[C@H](CC(C)C)NC(=O)[C@H](Cc1c[nH]c2ccccc12)NC(=O)[C@H](CCC(=O)O)NC(=O)[C@@H](NC(=O)[C@H](CCCNC(=N)N)NC(=O)[C@H](CCC(=O)O)NC(=O)[C@H](CCSC)NC(=O)[C@H](CO)NC(=O)[C@H](CC(N)=O)NC(=O)[C@H](CC(C)C)NC(=O)[C@H](Cc1c[nH]cn1)NC(=O)[C@H](CCCCN)NC(=O)CNC(=O)[C@H](CC(C)C)NC(=O)[C@H](CC(N)=O)NC(=O)[C@H](Cc1c[nH]cn1)NC(=O)[C@H](CCSC)NC(=O)[C@H](CC(C)C)NC(=O)[C@H](CCC(N)=O)NC(=O)[C@@H](NC(=O)[C@H](CCC(=O)O)NC(=O)[C@H](CO)NC(=O)[C@@H](NC(=O)[C@@H](N)CO)C(C)C)[C@@H](C)CC)C(C)C)C(C)C)C(=O)N[C@@H](CCC(=O)O)C(=O)N[C@@H](Cc1ccc(O)cc1)C(=O)N[C@@H](CCC(=O)O)C(N)=O	micro-CT	humanized PTH1R mouse, femur	dose not given	–	bone mineral density	690 mgHA/cm3 and 512 mgHA/cm3 and 467 mgHA/cm3
COC1OC(C)C(OC2OC(C)C(OS(=O)(=O)O)C(OC3OC(C)C(OC4OC(C)C(OS(=O)(=O)O)C(OC5OC(C)C(OC6OC(C)C(OS(=O)(=O)O)C(OC7OC(C)C(OC8OC(C)C(OS(=O)(=O)O)C(OS(=O)(=O)O)C8O)C(OS(=O)(=O)O)C7O)C6O)C(OS(=O)(=O)O)C5O)C4O)C(OS(=O)(=O)O)C3O)C2O)C(OS(=O)(=O)O)C1O (stereo not drawn)	–	human plasma	128 µg/mL	–	activated partial thromboplastin time	40.6 ± 0.6 s
Nc1nc2cc(CC[C@H]3C[C@@H](n4ccc5c(N)ncnc54)[C@H](O)[C@@H]3O)ccc2cc1Br	–	A-427 xenograft, mouse	10.0 mg/kg/day, day 34	–	tumour volume	37 ± 6 mm3
COC1OC(C)C(OC2OC(C)C(OS(=O)(=O)O)C(OC3OC(C)C(OC4OC(C)C(OS(=O)(=O)O)C(OC5OC(C)C(OC6OC(C)C(OS(=O)(=O)O)C(OS(=O)(=O)O)C6OS(=O)(=O)O)C(OS(=O)(=O)O)C5OS(=O)(=O)O)C4OS(=O)(=O)O)C(OS(=O)(=O)O)C3OS(=O)(=O)O)C2OS(=O)(=O)O)C(OS(=O)(=O)O)C1OS(=O)(=O)O (stereo not drawn)	–	human plasma	128 µg/mL	–	activated partial thromboplastin time	213.2 ± 1 s
O=C(Nc1ccc([C@H]2[C@@H](F)[C@@H](F)C[C@@H](F)[C@H]2F)cc1)C1CC1(F)F (stereo partly drawn)	liver microsome stability	rat liver microsomes	1 µM	–	hepatic clearance	10 mL/min/kg

A few entries again:
SMILES	test	test system	conditions	scale	quantity	value
COC1OC(C)C(OC2OC(C)C(OS(=O)(=O)O)C(OC3OC(C)C(OC4OC(C)C(OS(=O)(=O)O)C(OC5OC(C)C(OC6OC(C)C(OS(=O)(=O)O)C(OC7OC(C)C(OS(=O)(=O)O)C(OS(=O)(=O)O)C7OS(=O)(=O)O)C6OS(=O)(=O)O)C(OS(=O)(=O)O)C5OS(=O)(=O)O)C4OS(=O)(=O)O)C(OS(=O)(=O)O)C3OS(=O)(=O)O)C2OS(=O)(=O)O)C(OS(=O)(=O)O)C1OS(=O)(=O)O (stereo not drawn)	–	human plasma	16 µg/mL	–	activated partial thromboplastin time	75.7 s and 77.5 s and 79.5 s
